Experimental data of several laboratories.
Protocols differ between the studies behind these lines. Several values in a cell are separate wells, animals, samples, runs or records. ± gives the spread as reported.
Chain of UniProt Q16512 (whole entry, looked up): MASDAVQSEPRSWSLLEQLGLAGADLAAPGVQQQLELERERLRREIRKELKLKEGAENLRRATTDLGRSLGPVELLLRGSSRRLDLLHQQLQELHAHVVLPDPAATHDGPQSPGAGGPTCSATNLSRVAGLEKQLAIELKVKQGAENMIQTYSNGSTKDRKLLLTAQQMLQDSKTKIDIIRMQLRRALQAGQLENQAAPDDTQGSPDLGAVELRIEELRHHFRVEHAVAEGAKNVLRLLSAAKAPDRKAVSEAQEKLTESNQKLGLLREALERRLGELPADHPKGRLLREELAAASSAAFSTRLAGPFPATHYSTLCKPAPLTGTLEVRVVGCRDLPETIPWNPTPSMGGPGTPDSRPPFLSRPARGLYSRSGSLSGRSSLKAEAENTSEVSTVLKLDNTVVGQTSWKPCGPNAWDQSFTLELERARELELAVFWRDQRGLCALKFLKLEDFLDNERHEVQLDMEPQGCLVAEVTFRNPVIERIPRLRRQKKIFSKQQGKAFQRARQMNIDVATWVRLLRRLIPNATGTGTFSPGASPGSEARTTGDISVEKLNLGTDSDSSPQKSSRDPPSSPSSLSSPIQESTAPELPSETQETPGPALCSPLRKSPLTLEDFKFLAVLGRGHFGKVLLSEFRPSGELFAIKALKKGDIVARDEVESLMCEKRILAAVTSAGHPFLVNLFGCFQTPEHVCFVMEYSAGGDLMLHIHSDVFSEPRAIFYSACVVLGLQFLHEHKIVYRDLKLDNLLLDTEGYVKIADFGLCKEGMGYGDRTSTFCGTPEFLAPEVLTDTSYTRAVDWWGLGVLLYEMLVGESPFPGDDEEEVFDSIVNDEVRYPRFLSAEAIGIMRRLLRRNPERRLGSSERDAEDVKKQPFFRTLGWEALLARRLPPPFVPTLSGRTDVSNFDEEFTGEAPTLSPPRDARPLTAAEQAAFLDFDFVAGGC

CNC1(c2ccccc2Cl)CCCCC1=O (racemic)
immobility duration (forced swim test; CD-1 mice; intraperitoneal, 10 mg/kg, 24 h, added: saline pre-treatment; relative to: vehicle): decreased

CC[C@H](C)[C@@H]1NC(=O)[C@@H]2CCCN2C(=O)[C@H](CC(C)C)NC(=O)[C@H](CC(C)C)NC(=O)CNC(=O)[C@@H](NC(=O)[C@@H](NC(=O)[C@H](CC(=O)O)NC(=O)CNC(=O)[C@@H](NC(=O)[C@H](C)NC(=O)CNC(=O)[C@H](CCCCN)NC(=O)[C@H](CC(C)C)NC(=O)[C@H](CC(C)C)NC(=O)[C@H](CCCCN)NC(=O)CNC(=O)[C@@H](NC(=O)[C@@H](N)CC(C)C)C(C)C)C(C)C)C(C)C)CSSC[C@@H](C(=O)O)NC1=O
log2 fold change (RNA-seq, refers to: Vasp mRNA; mouse traumatic brain injury, frontal cortex and hippocampus; dose not given; relative to: TBI plus compound vs TBI): -2.44

N=C(N)NC(=O)Cc1c(Cl)cccc1Cl
IC50 (Plasmodium falciparum; HB3): 2000 nM

COc1ccc2c3c1O[C@H]1C(=O)CC[C@@]4(O)[C@@H](C2)N(C)CC[C@]314
paw withdrawal threshold (electronic von Frey; mouse, carrageenan allodynia; intraperitoneal, 1 mg/kg, 10 min): 2.7 ± 0.3 g

CNC(C)Cc1ccc2c(c1)OCO2 (stereo not drawn)
time to significant hyperthermia (refers to: body temperature; wild-type mice; i.p., 25 mg/kg, added: methamphetamine 3 mg/kg; relative to: time point -5): 30 min

CC[N+](CC)(CC)CCOc1ccc(/C=C/c2ccccc2)cc1
IC50 (Plasmodium falciparum; W2): 398 nM

C[C@H]1CN(c2n[nH]c3nc(N[C@H]4CC[C@H](NS(=O)(=O)CCC(F)(F)F)CC4)ncc23)CCO1
relative abundance (PKN1 (Homo sapiens, UniProt Q16512); inhibitor, Kinobeads competition profiling; 0.032 µM; relative to: vehicle): 0.98

C#CCN(C)[C@H](C)Cc1ccccc1
step-through latency (passive avoidance acquisition; APP/PS1 mice; oral, 10 mg/kg, 72 h, 3 days treatment): 33.5 ± 7.61 s

COc1cc(CCN)ccc1O
log2 fold change (binding, MIDAS equilibrium dialysis LC-MS; A2AR-BRIL thermostabilized; concentration not given; relative to: no-protein control): 0.0891

C#CCN(C)[C@H](C)Cc1ccccc1
corridor crossing time (footprint test; MPTP-induced Parkinson's disease mouse model; 10 mg/kg, trial 1): 4.19 s and 4.53 s and 5.62 s and 6.18 s and 5.84 s and 6.88 s and 5.57 s and 6.24 s

CN[C@@H](C)Cc1ccccc1
time to significant hyperthermia (refers to: body temperature; wild-type mice; i.p., 3 mg/kg, added: MDMA 25 mg/kg; relative to: time point -5): 75 min

CC(C)C[C@H](CN)CC(=O)O
VAS pain difference (visual analogue scale; healthy male subjects, capsaicin-treated skin; 150 mg; relative to: placebo): -9.9%
